Experimental data from different studies.
Values joined by “and” are separate records of one study, mostly repeats; a detail may differ. ± marks the error that the study gave.
Kir1 channel protein: Kir1 channel protein (Aedes aegypti, UniProt L0EQS9)
Urease: Urease (Canavalia ensiformis, UniProt P07374)
Cyp2b1: Cytochrome P450 2B1 (Cyp2b1, Rattus norvegicus, UniProt P00176)
Inward rectifier potassium channel 4: Inward rectifier potassium channel 4 (Homo sapiens, UniProt P48050)
ALPL: Alkaline phosphatase, tissue-nonspecific isozyme (ALPL, Homo sapiens, UniProt P05186)
CAPN1: Calpain-1 catalytic subunit (CAPN1, Homo sapiens, UniProt P07384)
ALKBH2: DNA oxidative demethylase ALKBH2 (ALKBH2, Homo sapiens, UniProt Q6NS38)
KCNK18: Potassium channel subfamily K member 18 (KCNK18, Homo sapiens, UniProt Q7Z418)
STS: Steryl-sulfatase (STS, Homo sapiens, UniProt P08842)
KCNJ13 M125R: Inward rectifier potassium channel 13 (KCNJ13, Homo sapiens, UniProt O60928, M125R)
MAL12: Alpha-glucosidase MAL12 (MAL12, Saccharomyces cerevisiae S288c, UniProt P53341)

Molecule | target | test | test system | setting | IC50
COc1ccc(CCN2CCC(Nc3nc4ccccc4n3Cc3ccc(F)cc3)CC2)cc1 | KCNH1 (Homo sapiens, UniProt O95259) | potassium current, blocker, whole-cell patch clamp | HEK293 stably transfected | pH 7.4 extracellular, test pulse 80 mV | 0.196 µM and 0.21 µM and ~0.2 µM
O=[N+]([O-])c1ccc(N2CCN(S(=O)(=O)c3ccc(F)cc3)CC2)cc1NCc1nc2ccccc2o1 | Kir1 channel protein | ion flux, inhibitor, fluorescence |  |  | 6.12 µM
Fc1ccccc1NC(=S)N1CCc2ccccc2C1 | Urease | enzyme activity, inhibitor, absorbance |  |  | 24.5 µM
[Cl][Eu]([Cl])[Cl] | human MMP-2 catalytic domain | inhibitor |  | pH 7.5, 37 °C, 45 min preincubation, added: DQ-gelatin | 10 ± 0.58 µM
Nc1ncnc2c1ncn2[C@@H]1O[C@H](CSCC[C@H](N)C(=O)O)[C@@H](O)[C@H]1O | Histone-lysine N-methyltransferase 2A, pentameric core complex (KMT2A, Homo sapiens, UniProt Q03164) | FL-NAH displacement, fluorescence polarization |  | 30 min, pentameric complex, added: 50 nM FL-NAH | 0.2 ± 0.02 µM
O=c1cc(-c2ccccc2)oc2ccc(O)cc12 | Cyp2b1 | enzyme activity, inhibitor | supersomes | added: pentoxyresorufin 5 µM | > 50 µM
N#Cc1ccc(F)c(OCC(O)Cn2c(=N)n(Cc3ccccc3)c3ccccc32)c1 (centres unmarked) | Inward rectifier potassium channel 4 | ion flux, inhibitor, fluorescence |  |  | 5.3 µM
O=c1cc(-c2cccc3ccccc23)[nH][nH]1 | ALPL | enzyme activity, inhibitor, luminescence |  | added: 1 µM CDP-star, 100 mM DEA | 1.15 ± 0.058 µM
CCCc1nc2ccc(C)nc2n1-c1ccc2[nH]c(=O)sc2c1 | GRIA1/CACNG8 (Homo sapiens, UniProt P42261+Q8WXS5) | calcium influx, antagonist, FLIPR | HEK293 expressing GluA1o | added: glutamate 100 µM | 0.0045 µM
COc1cccc(Cn2c(=N)n(CC(O)COc3ccc(C)cc3)c3ccccc32)c1 (centres unmarked) | Inward rectifier potassium channel 4 | ion flux, inhibitor, fluorescence |  |  | 2.8 µM
C[C@@H](CNCc1ccccc1)N1C[C@H](CCCNC(=N)N)N(CCc2cccc(F)c2)C1=S | adrenergic α1A, α1B and α2A receptors | binding, radioligand displacement |  |  | > 1 µM
CCCCCC/C=C\CC(=O)N[C@H](C(=O)N[C@@H](CO)[C@@H](O)CC(=O)N[C@H](C(=O)N[C@@H](CO)[C@@H](O)CC(=O)N[C@H](C(=O)N[C@@H]1C=CC(=O)N[C@@H](C(C)C)C(=O)N(C)[C@@H](Cc2ccc(O)cc2)C(=O)OC1)C(C)C)C(C)C)C(C)C | CAPN1 | enzyme activity, inhibitor, fluorescence |  |  | 0.0209 µM
O=c1oc2c(O)c(O)cc3c(=O)oc4c(O)c(O)cc1c4c23 | ALKBH2 | 3-methylcytosine repair, inhibitor, HPLC |  | 1 h, 37 °C, added: ssDNA 16mer 5 µM | 25.5 µM
Cc1cc(OCC(=O)N/N=C/c2cccc(OCc3cn(Cc4ccc(Cl)cc4)nn3)c2)c2c(C)cc(=O)oc2c1 | Urease | enzyme activity, inhibitor |  |  | 9.59 µM
Cc1ccc(Oc2cccc(CC(=O)N3CCNc4nc(C(F)(F)F)ccc4[C@H]3CC(=O)O)c2)cn1 | Gastrin-releasing peptide receptor (Rattus norvegicus, UniProt P52500) | ligand displacement, radioligand |  |  | > 3 µM
moenomycin | Transglycosylase (Staphylococcus aureus, UniProt Q9R744) | transglycosylase activity, inhibitor | RN4220 | 1 h, pH 7.0, 30 °C, 10% DMSO, added: [14C]-lipid II D-Ala-D-Ala 4 µM | 0.16 ± 0.08 µM
Cc1nnc(S(=O)(=O)CC(=O)C23CC4CC(CC(C4)C2)C3)s1 | Cytochrome P450 3A4 (CYP3A4, Homo sapiens, UniProt P08684) | enzyme activity, inhibitor, fluorescence |  |  | 6.3 µM
Cc1ccccc1NC(=S)N1CCc2ccccc2C1 | Urease | enzyme activity, inhibitor, absorbance |  |  | 20.4 µM
CC(C)S(=O)(=O)c1cc2c(Nc3ccc4sc(C5CCCC5)nc4c3)ccnc2cc1OCCO | RIPK3 (Homo sapiens, UniProt Q9Y572) | enzyme activity, inhibitor, ADP detection |  |  | 0.016 µM
Cn1c(=O)c2c(nc(C=Cc3cccc(Cl)c3)n2C)n(C)c1=O | KCNK18 | ion flux, inhibitor |  |  | 22 µM
O=[N+]([O-])c1ccc(N2CCN(S(=O)(=O)c3ccc(F)cc3)CC2)cc1NCc1ccon1 | Kir1 channel protein | ion flux, inhibitor, fluorescence |  |  | 30.4 µM
CN(C)c1ccc(O)cn1 | PTGS1 (Ovis aries, UniProt P05979) | enzyme activity, inhibitor |  | pH 8 | 22 µM
CCOc1ccc(C)cc1S(=O)(=O)Nc1cccnc1 | ALPL | enzyme activity, inhibitor |  |  | 1.93 µM
CC12CC3CC(C)(C1)CC(N)(C3)C2 | Gria2/CACNG8 (Rattus norvegicus, UniProt P19491+Q8WXS5) | ion current, inhibitor, whole-cell patch clamp | HEK293 | GluA2(Q) with gamma-8, -60 mV, added: glutamate 10 mM | 48 ± 3 µM
C[C@]12CC[C@@H]3c4cc(C(F)F)c(OS(N)(=O)=O)cc4CC[C@H]3[C@@H]1CCC2=O | STS | inhibitor | JEG-3 |  | 5.5e-05 µM
FC(F)(F)c1ccc(-c2cc(Nc3ccc4ncsc4c3)ncn2)c(NCC2CCCCC2)c1 | Trpv1 (Rattus norvegicus, UniProt O35433) | capsaicin-induced 45Ca2+ uptake, antagonist | CHO expressing rat TRPV1 | pH 7.4, added: capsaicin 500 nM | 0.0293 ± 0.0124 µM
tannic acid | ALKBH2 | enzyme activity, inhibitor, HPLC |  | 1 h, 37 °C, 2-oxoglutarate and Fe(II) present, added: 1-methyladenine in single-stranded DNA | 1.8 µM

Molecule | target | test | test system | setting | IC50
N#Cc1ccc(C(Cc2ccc(OS(N)(=O)=O)cc2)n2cncn2)cc1 (racemic) | STS | enzyme activity, inhibitor |  |  | 3.52 ± 0.625 µM
Nc1ncnc2c1ncn2[C@@H]1O[C@H](COP(=O)(O)O)[C@@H](OP(=O)(O)O)[C@H]1O | AASDHPPT (Homo sapiens, UniProt Q9NRN7) | phosphopantetheinylation, inhibitor, fluorescence polarization |  | 45 min, pH 7.6, 10% DMSO, added: VibB 10 µM and rhodamine-CoA 5 µM | 6 ± 1 µM
CCCCN(Cc1ccc(C(=O)NO)cc1)C(=O)Nc1ccccc1 | HDAC (Lucilia cuprina egg nuclear extract) | enzyme activity, inhibitor, fluorometric |  |  | 5.1 µM
CCc1oc2ccc(F)cc2c1C(=O)c1cc(Br)c(O)c(Br)c1 | SLC22A12 (Homo sapiens, UniProt Q96S37) | transporter uptake, inhibitor, radiometric |  | oocytes | 0.006 µM
Clc1ccc(COC(Cn2ccnc2)c2ccc(Cl)cc2Cl)c(Cl)c1 (centres unmarked) | 7-alpha-hydroxycholest-4-en-3-one 12-alpha-hydroxylase (Homo sapiens, UniProt Q9UNU6) | enzyme activity, inhibitor |  | 2 min, added: 7α-hydroxycholest-4-en-3-one 0.5 µM (Km) | 0.46 µM
[Cl-].[Cl-].[Zn+2] | HVCN1 (Homo sapiens, UniProt Q96D96, D130H/H193A) | proton current, inhibitor, whole-cell voltage clamp | human cells | pH 6.5, test pulse 120 mV | 3.7 µM
O=c1cc(-c2ccccc2O)oc2ccccc12 | Cyp2b1 | enzyme activity, inhibitor | supersomes | added: pentoxyresorufin 5 µM | > 50 µM
O=C(Nc1cccc(OC(F)(F)F)c1)N[C@H]1CC[C@H](Oc2ccc(C(=O)O)cc2)CC1 | Ephx2 (Rattus norvegicus, UniProt P80299) | enzyme activity, inhibitor, fluorescence |  |  | 0.016 µM
C[C@@H]1O[C@@H](O[C@H]2[C@H](Oc3cc(O)c4c(c3)O[C@H](c3ccc(O)cc3)CC4=O)O[C@H](CO)[C@@H](O)[C@@H]2O)[C@H](O)[C@H](O)[C@H]1O | SLCO2B1 (Homo sapiens, UniProt O94956) | transporter uptake, inhibitor, radiometric | MDCK-II | 3 min, pH 6 | 34 to 40 µM and 20 to 50 µM
Nc1ncnc2c1ncn2[C@@H]1O[C@H](C[C@H](CC[C@H](N)C(=O)O)NCc2ccccc2)[C@@H](O)[C@H]1O | SETD2 (Homo sapiens, UniProt Q9BYW2) | enzyme activity, inhibitor, radiometric methylation |  | added: SAM and peptide at sub-Km | 0.48 ± 0.06 µM
CC(C)C[C@H](NC(=O)[C@@H]1O[C@H]1C(=O)O)C(=O)Nc1c(F)cccc1F | CAPN1 | inhibitor, FRET |  | 20 min | > 1 µM
O=C(NO)c1ccc(Cn2c3c(c4cc(Br)ccc42)SC(c2ccccc2)C3)s1 (centres unmarked) | Histone deacetylase 8 (Schistosoma mansoni, UniProt A5H660) | enzyme activity, inhibitor, Fluor-de-Lys |  | varied substrate concentration, added: Fluor-de-Lys substrate 50 µM | 5.17 ± 2.58 µM
Cc1ccccc1OCC(O)Cn1c(=N)n(Cc2ccccc2)c2ccccc21 (centres unmarked) | KCNJ13 M125R | ion flux, inhibitor |  |  | 4.1 µM
COc1cc(C2C(C#N)=C(N)Oc3c2c(=O)[nH]c2ccccc32)ccc1OCc1cn(Cc2ccc(F)cc2)nn1 (centres unmarked) | MAL12 | enzyme activity |  |  | 15.9 ± 0.2 µM
Cc1cc(OCC(=O)N/N=C/c2ccc(OCc3cn(Cc4ccc(F)cc4)nn3)cc2)c2c(C)cc(=O)oc2c1 | Urease | enzyme activity, inhibitor |  |  | 16.9 ± 0.68 µM
Cc1ccc(OCC(O)Cn2c(=N)n(Cc3ccccc3)c3ccccc32)cc1 (centres unmarked) | Inward rectifier potassium channel 4 | ion flux, inhibitor, fluorescence |  |  | 4.15 µM
[Zn+2] | Caspase-7 (CASP7, Homo sapiens, UniProt P55210) | enzyme activity, inhibitor |  | citrate-buffered free compound, added: DEVD-AMC substrate | 0.141 ± 0.0021 µM
Cc1cccc(Cc2nn(C(C)(C)C)c3ncnc(N)c23)c1 | EPHB1 (Homo sapiens, UniProt P54762) | phosphorylation in cells, inhibitor, western blot |  |  | 6.1 µM
COc1ccc(OCC(O)Cn2c(=N)n(Cc3ccccc3)c3ccccc32)cc1 (centres unmarked) | KCNJ13 M125R | ion flux, inhibitor |  |  | 6.7 µM
CCCCc1nc2cc(/C=C/C(=O)NO)ccc2n1CCN(CC)CC | HDAC (Lucilia cuprina egg nuclear extract) | enzyme activity, inhibitor, fluorometric |  |  | 0.69 µM
CC1=NN(c2nc(-c3ccccc3)cs2)C(=O)C1=NNc1nccs1 | Apoptosis regulator BAX, trigger site (BAX, Homo sapiens, UniProt Q07812) | binding, competitor, fluorescence polarization |  | added: FITC-BIM SAHBA2 50 nM | 3.7 µM
OCc1ccc(-c2nn(Cc3ccccc3)c3ccccc23)o1 | KCNK18 | ion flux, inhibitor |  |  | 16.9 µM
Cc1ccc(Cn2cc(COc3cccc(C4C(C#N)=C(N)Oc5c4c(=O)[nH]c4ccccc54)c3)nn2)cc1 (centres unmarked) | MAL12 | enzyme activity |  |  | 14.52 ± 0.05 µM
COc1cccc(OCC(O)Cn2c(=N)n(Cc3ccccc3)c3ccccc32)c1 (centres unmarked) | KCNJ13 M125R | ion flux, inhibitor |  |  | 3.47 µM
CC(C)N(C)c1nc2cc(C(=O)O)ccc2nc1-c1ccc(F)cc1 | PASK (Homo sapiens, UniProt Q96RG2) | phosphorylation in cells, inhibitor, ELISA |  |  | ~1 µM
COc1ccc(C(=O)NC2(C(=O)O)Cc3ccccc3C2)cc1OCCc1cccc(C)c1 | LPAR1 (Homo sapiens, UniProt Q92633) | calcium flux, antagonist, FLIPR | primary SSc dermal fibroblasts | added: LPA | 0.237 µM
